Published values of several laboratories.
Each numbered part is a random draw from the data of one study; scales do not carry over between parts. Substitutions count along the parent as printed.

Set 1
Target: Prothrombin, mature alpha-thrombin (F2, Homo sapiens, UniProt P00734)
Technique: aptamer microarray, sandwich
Form: DNA with 2'F-ANA
Matrix: in vitro
Tested at: 200 nM
Notes: whole 15-mer aptamer, many near background
With: Cy3 exosite-II aptamer, 400 nM
Direction: higher = stronger binding
Oligonucleotide: GGTTGGTGTGGTTGG
Modification	mean fluorescence intensity
2'F-ANA at 8 10 11 12 13 15	175 a.u.
2'F-ANA at 1 2 3 4 6 7 8 13 15	124 a.u.
2'F-ANA at 1 2 4 9 10 14 15	48.8 a.u.
2'F-ANA at 1 4 5 6 7 12 15	113 a.u.
2'F-ANA at 2 4 5 6 7 10 14	50.9 a.u.
2'F-ANA at 2 3 4 5 6 8 13 14 15	43.6 a.u.
2'F-ANA at 1 4 6 7 9 11 13 14	49.4 a.u.
2'F-ANA at 2 4 5 6 8 9 10 11 12	56.7 a.u.

Set 2
Target: Centromere-binding protein 1, full length, His-tagged (CBF1, Saccharomyces cerevisiae, UniProt P17106, residues 1-351)
Chain of UniProt P17106 (whole entry, looked up): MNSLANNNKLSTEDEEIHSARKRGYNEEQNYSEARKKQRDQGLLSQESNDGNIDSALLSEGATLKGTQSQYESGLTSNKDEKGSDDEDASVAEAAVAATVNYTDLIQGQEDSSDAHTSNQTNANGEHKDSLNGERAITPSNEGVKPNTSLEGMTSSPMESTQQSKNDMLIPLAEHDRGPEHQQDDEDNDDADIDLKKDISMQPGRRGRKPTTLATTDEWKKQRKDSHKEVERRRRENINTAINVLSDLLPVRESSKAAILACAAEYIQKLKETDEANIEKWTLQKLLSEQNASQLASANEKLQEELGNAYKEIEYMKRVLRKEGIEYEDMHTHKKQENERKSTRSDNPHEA
Technique: competition protein-binding microarray
Form: double-stranded DNA, one strand shown
Matrix: in vitro
Tested at: 2 µM
Notes: whole 60-bp probe, lowest competitor level
With: Pho4 competitor, 0.05 µM
Direction: higher = stronger binding
Shared flanks, not repeated: … GTCTTGATTCGCTTGACGCTGCTG
Oligonucleotide	fluorescence intensity [a.u.]
AAAGCGGTAATTTTTCACGTGAAATCAAATATCTAT	928
GCAGCGGCGGCCTTTCTCGTGATGGTGGCGCTCGGA	77.5
AGTTCATCGATGTAGCATGTGTACGCATTTCTAGAT	91.7
CTAACGAAGGTTTGAGGTGTGGGTGACAAGCCAAGT	64.7
TCTCTTCTTCATCACCACGATGTATCTTTTGTTTTG	79.1
TGTTTCACCTAAGCAAACGTGTGGACCACAACCAAA	76.6
CACTTGAAAACGGTGAACGTGGTCGTATACCTTCGA	98.6
ACATTATGCATAGCTTACCTGATCCAAAAGTATGTA	76.5

Set 3
Target: ATP-dependent RNA helicase DDX3X, helicase core (DDX3X, Homo sapiens, UniProt O00571, residues 132-607)
Chain of UniProt O00571 (132-607, looked up): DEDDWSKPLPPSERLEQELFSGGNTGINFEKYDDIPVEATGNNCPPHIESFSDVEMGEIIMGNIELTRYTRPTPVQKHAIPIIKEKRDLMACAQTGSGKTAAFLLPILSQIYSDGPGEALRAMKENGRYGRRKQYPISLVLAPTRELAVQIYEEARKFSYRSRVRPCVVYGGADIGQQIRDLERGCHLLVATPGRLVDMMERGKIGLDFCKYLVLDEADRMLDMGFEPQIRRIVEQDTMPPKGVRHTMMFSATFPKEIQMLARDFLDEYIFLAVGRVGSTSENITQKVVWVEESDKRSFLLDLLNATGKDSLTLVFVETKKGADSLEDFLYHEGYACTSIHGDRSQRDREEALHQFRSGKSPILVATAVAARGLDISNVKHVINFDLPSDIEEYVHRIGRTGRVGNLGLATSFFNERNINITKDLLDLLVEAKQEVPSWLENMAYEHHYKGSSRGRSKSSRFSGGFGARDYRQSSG
Technique: RNA Bind-n-Seq
Form: RNA
Matrix: in vitro
Tested at: not given
Notes: 4-mer, random 30-nt RNA, single round
With: RocA, ADP, phosphate
Relative to: input library
Direction: higher = stronger binding
Oligonucleotide	4-mer enrichment
CGCA	0.714 fold
GCCU	0.659 fold
UUGU	1.11 fold
GUUG	1.19 fold
GUUU	1.09 fold
GACG	0.943 fold
UAAA	0.983 fold
UUAG	1.02 fold

Other studies, line by line
Starting sequence: viral docking peptide; KGVKRKLFAEDSS
Substitution	target	assay	test system	setting	scale	measurement	value
KGVKRKLFAEFSS [D11F]	CCNB1, cyclin fold, Cln2 fusion (human)	yeast growth competition, sequencing	yeast	strong parent motif	relative to: not given, higher = stronger binding	normalised enrichment score	0.985

Excerpt of the above (set 1):
Modification	mean fluorescence intensity
2'F-ANA at 1 2 4 9 10 14 15	48.8 a.u.
2'F-ANA at 1 4 5 6 7 12 15	113 a.u.
